{"data": "Results pooled from the literature", "note": "Numbers after ± are the reported error."}
{"SMILES": "CC[C@H](C)[C@H](NC(=O)[C@H](CCCCN)NC(=O)CNC(=O)[C@H](CC(C)C)NC(=O)[C@H](Cc1ccccc1)NC(=O)[C@H](CCCCN)NC(=O)[C@H](CO)NC(=O)[C@H](Cc1ccccc1)NC(=O)[C@H](Cc1c[nH]c2ccccc12)NC(=O)[C@H](CCC(N)=O)NC(=O)[C@@H](NC(=O)[C@H](Cc1ccccc1)NC(=O)CCCCCNC(=O)CN1CCN(CC(=O)O)CCN(CC(=O)O)CCN(CC(=O)O)CC1)C(C)C)C(=O)N[C@@H](CCC(=O)O)C(=O)N1CCC[C@H]1C(=O)N[C@@H](CC(=O)O)C(=O)N[C@H](C(=O)N[C@@H](CO)C(=O)N[C@@H](CCC(N)=O)C(=O)N[C@H](C(=O)N[C@@H](CCC(N)=O)C(=O)N[C@@H](CC(=O)O)C(=O)N1CCC[C@H]1C(=O)N[C@@H](CC(N)=O)C(=O)N[C@@H](CC(=O)O)C(=O)N[C@@H](CCC(N)=O)C(=O)N[C@@H](Cc1ccc(O)cc1)C(=O)N[C@@H](CCC(=O)O)C(=O)N1CCC[C@H]1C(=O)N[C@@H](Cc1ccccc1)C(=O)O)C(C)C)C(C)C [copper-64 labelled]", "test system": "BALB/c mice, male, CT26 tumour-bearing, pancreas", "conditions": "2 h, vehicle-treated", "tissue uptake": "1.44 ± 1.3 %ID/g"}
{"SMILES": "C[C@H](O)[C@@H](NC(=O)[C@H]1CCCN1C(=O)[C@@H](CCCCN)NC(=O)[C@@H](CO)NC(=O)[C@@H](Cc1ccc(O)cc1)NC(=O)[C@@H](CC(N)=O)NC(=O)CCOCCOCCOCCNC(=O)CN1CCN(CC(=O)O)CCN(CC(=O)O)CCN(CC(=O)O)CC1)C(=O)N[C@H](CC(=O)O)C(=O)N[C@H](CCCNC(=N)N)C(=O)N[C@H](CCC(N)=O)C(=O)N[C@H](Cc1ccc(O)cc1)C(=O)N[C@H](Cc1c[nH]cn1)C(=O)N[C@H](Cc1ccccc1)C(N)=O [copper-64 labelled]", "test system": "C57BL/6J mice, heart", "conditions": "intravenous, 1.85 MBq, 0.6667 h, radiolabelled", "tissue uptake": "0.56 ± 0.14 %ID/g"}
{"SMILES": "CN1Cc2cc(Cl)ccc2-n2c(nnc2C2CCN(c3cccc([18F])n3)CC2)C1", "test system": "C57BL/6 mouse male, thymus", "conditions": "intravenous, 3.7 MBq, 15 min", "tissue uptake": "3.14 ± 0.28 %ID/g"}
{"SMILES": "CSCC[C@H](NC(=O)CNC(=O)[C@H](CCCCN)NC(=O)[C@H](CC(C)C)NC(=O)[C@@H]1CCCN1C(=O)[C@H](CO)NC(=O)[C@H](Cc1c[nH]cn1)NC(=O)[C@H](Cc1c[nH]c2ccccc12)NC(=O)[C@H](CCCNC(=N)N)NC(=O)[C@H](CC(C)C)NC(=O)[C@H](CCCNC(=N)N)NC(=O)[C@H](Cc1c[nH]c2ccccc12)NC(=O)[C@H](CS)NC(=O)CCCCCNC(=O)CN1CCN(CC(=O)O)CCN(CC(=O)O)CCN(CC(=O)O)CC1)C(=O)O [copper-64 labelled]", "assay": "ex vivo biodistribution", "test system": "C57BL/6J mice bearing B16-F10 tumours, liver", "conditions": "intravenous, 1.85 MBq, 30 h", "tissue uptake": "16 %ID/g"}
{"SMILES": "CC[C@H](C)[C@H](NC(=O)[C@H](CCCNC(=N)N)NC(=O)[C@H](CCCCN)NC(=O)[C@H](Cc1ccc(O)cc1)NC(=O)[C@H](CC(=O)O)NC(=O)[C@H](C)NC(=O)CNC(=O)CCOCCOCCOCCNC(=O)CN1CCN(CC(=O)O)CCN(CC(=O)O)CCN(CC(=O)O)CC1)C(=O)N[C@H](C(=O)N[C@@H](CC(C)C)C(=O)N[C@@H](CCCCN)C(=O)N[C@H](C(=O)N[C@@H](CC(N)=O)C(N)=O)C(C)C)[C@@H](C)O [copper-64 labelled]", "assay": "ex vivo gamma counting", "test system": "C57BL/6J male mice, B16-F10 tumour, blood", "conditions": "intravenous, 1.85 MBq, 20 min", "tissue uptake": "2.31 ± 1.01 %ID/g"}
{"SMILES": "CC(C)C[C@@H](NC(=O)[C@@H](CCCNC(=N)N)NC(=O)[C@@H](Cc1c[nH]cn1)NC(=O)[C@@H](Cc1c[nH]c2ccccc12)NC(=O)[C@@H](Cc1c[nH]cn1)NC(=O)[C@@H](Cc1ccccc1)NC(=O)[C@H](NC(=O)[C@@H](Cc1ccc(O)cc1)NC(=O)CNC(=O)CNC(=O)CCOCCOCCOCCNC(=O)CN1CCN(CC(=O)O)CCN(CC(=O)O)CC1)[C@H](C)O)C(=O)N[C@H](CC(N)=O)C(=O)N1CCC[C@@H]1C(=O)O [gallium-68 labelled]", "assay": "gamma counting", "test system": "C57BL/6 mice, male, blood", "conditions": "intravenous, 1.85 MBq, 120 min", "tissue uptake": "0.69 ± 0.2 %ID/g"}
{"SMILES": "CC[C@H](C)[C@H](NC(=O)[C@H](CCCNC(=N)N)NC(=O)[C@H](CCCCN)NC(=O)[C@H](Cc1ccc(O)cc1)NC(=O)[C@H](CC(=O)O)NC(=O)[C@H](C)NC(=O)CNC(=O)CCOCCOCCOCCNC(=O)CN1CCN(CC(=O)O)CCN(CC(=O)O)CCN(CC(=O)O)CC1)C(=O)N[C@H](C(=O)N[C@H](C(=O)N[C@@H](CCCCN)C(=O)N[C@H](C(=O)N[C@@H](CC(N)=O)C(N)=O)C(C)C)C(C)C)[C@@H](C)O [copper-64 labelled]", "assay": "ex vivo gamma counting", "test system": "C57BL/6J male mice, B16-F10 tumour, blood", "conditions": "intravenous, 1.85 MBq, 20 min", "tissue uptake": "3.37 ± 0.27 %ID/g"}
{"SMILES": "CCCC[C@H]1C(=O)N(C)[C@@H](CCCC)C(=O)N[C@@H](CCCNC(=O)CN2CCN(CC(=O)O)CCN(CC(=O)O)CCN(CC(=O)O)CC2)C(=O)N[C@H](C(=O)NCC(N)=O)CSCC(=O)N[C@@H](Cc2ccc(O)cc2)C(=O)N(C)[C@@H](C)C(=O)N[C@@H](CC(N)=O)C(=O)N2CCC[C@H]2C(=O)N[C@@H](Cc2c[nH]cn2)C(=O)N[C@@H](CC(C)C)C(=O)N(C)CC(=O)N[C@@H](Cc2c[nH]c3ccccc23)C(=O)N[C@@H](CO)C(=O)N[C@@H](Cc2c[nH]c3ccccc23)C(=O)N1C [gallium-68 labelled]", "test system": "NOD/SCID mice, CHO-hPD-L1 xenograft, brain", "conditions": "60 min, PBS pretreatment", "tissue uptake": "0.32 ± 0.06 %ID/g"}
{"note": "For quick reference, copied from above:"}
{"SMILES": "CC[C@H](C)[C@H](NC(=O)[C@H](CCCCN)NC(=O)CNC(=O)[C@H](CC(C)C)NC(=O)[C@H](Cc1ccccc1)NC(=O)[C@H](CCCCN)NC(=O)[C@H](CO)NC(=O)[C@H](Cc1ccccc1)NC(=O)[C@H](Cc1c[nH]c2ccccc12)NC(=O)[C@H](CCC(N)=O)NC(=O)[C@@H](NC(=O)[C@H](Cc1ccccc1)NC(=O)CCCCCNC(=O)CN1CCN(CC(=O)O)CCN(CC(=O)O)CCN(CC(=O)O)CC1)C(C)C)C(=O)N[C@@H](CCC(=O)O)C(=O)N1CCC[C@H]1C(=O)N[C@@H](CC(=O)O)C(=O)N[C@H](C(=O)N[C@@H](CO)C(=O)N[C@@H](CCC(N)=O)C(=O)N[C@H](C(=O)N[C@@H](CCC(N)=O)C(=O)N[C@@H](CC(=O)O)C(=O)N1CCC[C@H]1C(=O)N[C@@H](CC(N)=O)C(=O)N[C@@H](CC(=O)O)C(=O)N[C@@H](CCC(N)=O)C(=O)N[C@@H](Cc1ccc(O)cc1)C(=O)N[C@@H](CCC(=O)O)C(=O)N1CCC[C@H]1C(=O)N[C@@H](Cc1ccccc1)C(=O)O)C(C)C)C(C)C [copper-64 labelled]", "test system": "BALB/c mice, male, CT26 tumour-bearing, pancreas", "conditions": "2 h, vehicle-treated", "tissue uptake": "1.44 ± 1.3 %ID/g"}
